Results of several laboratories.
A part holds a random share of what one study measured.

Sample 1
Target: RING finger protein unkempt homolog, zinc fingers 1-6, GST-SBP tag (UNK, Homo sapiens, UniProt Q9C0B0, residues 30-357)
Sequence of UniProt Q9C0B0 (30-357, looked up): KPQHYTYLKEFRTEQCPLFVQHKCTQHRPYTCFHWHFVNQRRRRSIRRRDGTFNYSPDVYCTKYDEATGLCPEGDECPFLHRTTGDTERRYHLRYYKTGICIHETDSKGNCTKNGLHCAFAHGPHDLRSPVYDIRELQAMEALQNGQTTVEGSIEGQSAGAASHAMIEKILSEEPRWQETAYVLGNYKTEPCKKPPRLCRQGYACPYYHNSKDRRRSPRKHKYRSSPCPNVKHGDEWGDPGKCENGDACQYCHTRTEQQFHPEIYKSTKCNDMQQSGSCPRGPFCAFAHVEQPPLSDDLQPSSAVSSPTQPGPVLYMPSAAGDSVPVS
Method: RNA Bind-n-Seq
Form: RNA
Matrix: in vitro
Concentration: not given
Notes: RNA with constant flanks, human-mouse chimeric sites, ends assumed
Relative to: input RNA pool
Reading: higher = stronger binding
With `GGGAGUUCUACAGUCCGACGAUCAAAGUGAUGACUAUGUUUGUCCAACGACAGGUAUUUUCGGAGAGCAAAGAUGAGAUUGCGUUAGUCCUGUUUGGUACAGAUGGCACUGAUAAUGCCCUUUCUGGUGGGGACCAGUAUCAGCAACAGAGGAUUGAGCAUCA` the bound/input enrichment was 0.28 ratio.
With `GGGAGUUCUACAGUCCGACGAUCCCCUCCCCGGGCCACCCACCCCUCCCGGCUCCCCGCCGAGAUCCAGGUUUCUUCUUAUUUCAUAGCAAGCCAGAACAAUGUUCUACGCACAUUUUGUCCUCAGUAAACGAGGGCCUCUGGCAACAGAGGAUUGAGCAUCA` the bound/input enrichment was 1.32 ratio.
`GGGAGUUCUACAGUCCGACGAUCCGCGUCCUCUCGCUGCUGCGGAGCCCGAGCUGGGAACCAUUCCGGGACUGGUACCCUGCACACAGCCGCCUCUUCGAUCAAGCUUUCGGGGUGCCCCGGCUGCCGGAUGAGUGGUCGCAGCAACAGAGGAUUGAGCAUCA` gave a bound/input enrichment of 0.14 ratio.
With `GGGAGUUCUACAGUCCGACGAUCAGAGAUAAGACAUCCAGAAAUAUGAGAGGCUCCCGGAUGAAUGGGUUGCCUAGCCCCACUCACAGCGCCCACUGUAGCUUCUACCGAACCAGAACCUUGCAGGCACUAAGUAAUGAGAAGCAACAGAGGAUUGAGCAUCA` the bound/input enrichment was 0.223 ratio.

Sample 2
Target: Centromere-binding protein 1, full length, N-terminal tag (CBF1, Saccharomyces cerevisiae, UniProt P17106, residues 1-351)
Sequence of UniProt P17106 (whole entry, looked up): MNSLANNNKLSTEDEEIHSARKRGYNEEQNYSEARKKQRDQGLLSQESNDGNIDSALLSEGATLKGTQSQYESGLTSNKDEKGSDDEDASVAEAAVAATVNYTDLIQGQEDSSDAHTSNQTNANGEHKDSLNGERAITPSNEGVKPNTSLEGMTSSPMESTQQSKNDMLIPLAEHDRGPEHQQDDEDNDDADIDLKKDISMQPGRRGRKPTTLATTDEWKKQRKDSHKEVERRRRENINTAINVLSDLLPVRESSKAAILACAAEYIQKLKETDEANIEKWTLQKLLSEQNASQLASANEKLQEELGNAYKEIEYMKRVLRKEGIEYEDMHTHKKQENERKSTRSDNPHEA
Method: protein-binding microarray
Form: double-stranded DNA, one strand shown
Matrix: in vitro
Concentration: 0.8 µM
Notes: whole 60-bp probe, no competitor
Reading: higher = stronger binding
For `CTACTACGGACACTTCTGATGTTGCAAAAGATATTCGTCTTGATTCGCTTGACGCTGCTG`, the fluorescence intensity was 549 a.u.
`CTACCGGCTTTCTCCCACGAGGTTTCACTGCTGTTCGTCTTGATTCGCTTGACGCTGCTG` has a fluorescence intensity of 550 a.u.
`TGTACGAAGCTATTTCACGCAATTATAGTAGTTAGGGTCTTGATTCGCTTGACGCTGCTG` has a fluorescence intensity of 544 a.u.
`CTAAAAAGAAATTCAAACGTGGGCTGCCTATTATTCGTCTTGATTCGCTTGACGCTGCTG` gave a fluorescence intensity of 500 a.u.
`CTATGAACTCCGCGGCTCGTGCTATATTCTTGTTTCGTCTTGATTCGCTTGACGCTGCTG` has a fluorescence intensity of 586 a.u.
The fluorescence intensity of `CCTAACTACTATAATCATGCCTTATAGCTTCGTACAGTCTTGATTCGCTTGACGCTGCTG` is reported as 541 a.u.

Sample 3
Target: Histone acetyltransferase KAT6A, both winged helices, GST fusion (KAT6A, Homo sapiens, UniProt Q92794, residues 1-181)
Method: protein binding microarray
Form: double-stranded DNA, one strand shown
Matrix: in vitro
Concentration: not given
Notes: 8-mer, flanks averaged, mean of 2 arrays, mostly near background
Relative to: not given
Reading: higher = stronger binding
Construct (chain): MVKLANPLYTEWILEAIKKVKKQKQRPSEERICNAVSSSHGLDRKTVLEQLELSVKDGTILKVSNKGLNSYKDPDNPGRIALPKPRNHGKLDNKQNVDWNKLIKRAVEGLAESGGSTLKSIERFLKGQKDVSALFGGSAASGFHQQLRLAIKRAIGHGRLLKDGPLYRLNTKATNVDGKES
With `ATCTGACG` the E-score was 0.025.
With `CTGTTAAG` the E-score was 0.0506.
With `AAGGCAGT` the E-score was -0.183.
The E-score of `CTACTGGA` is reported as -0.272.
For `GACAGGAC`, the E-score was -0.00404.

Mixed results
The fold induction of `PhoQ, residues 284 288 289 292 302 303 AQGLTV` is reported as 1.89 (PhoP, residues 12 14 15 18 19 NYFRM (Escherichia coli, UniProt P23836); Sort-seq, refers to: YFP reporter; E. coli; PhoQ-PhoP variant library, added: 10 µM Mg2+; relative to: high Mg2+ state, higher = stronger signaling).

For quick reference, copied from above (sample 1):
With `GGGAGUUCUACAGUCCGACGAUCAGAGAUAAGACAUCCAGAAAUAUGAGAGGCUCCCGGAUGAAUGGGUUGCCUAGCCCCACUCACAGCGCCCACUGUAGCUUCUACCGAACCAGAACCUUGCAGGCACUAAGUAAUGAGAAGCAACAGAGGAUUGAGCAUCA` the bound/input enrichment was 0.223 ratio.
